Experimental data pooled from the literature.
Each line is one published result; not all experiments were run side by side. pIC50: −log10 of the molar value.
TMPRSS2: Transmembrane protease serine 2 (TMPRSS2, Homo sapiens, UniProt O15393)
Sequence of UniProt O15393 (whole entry, looked up): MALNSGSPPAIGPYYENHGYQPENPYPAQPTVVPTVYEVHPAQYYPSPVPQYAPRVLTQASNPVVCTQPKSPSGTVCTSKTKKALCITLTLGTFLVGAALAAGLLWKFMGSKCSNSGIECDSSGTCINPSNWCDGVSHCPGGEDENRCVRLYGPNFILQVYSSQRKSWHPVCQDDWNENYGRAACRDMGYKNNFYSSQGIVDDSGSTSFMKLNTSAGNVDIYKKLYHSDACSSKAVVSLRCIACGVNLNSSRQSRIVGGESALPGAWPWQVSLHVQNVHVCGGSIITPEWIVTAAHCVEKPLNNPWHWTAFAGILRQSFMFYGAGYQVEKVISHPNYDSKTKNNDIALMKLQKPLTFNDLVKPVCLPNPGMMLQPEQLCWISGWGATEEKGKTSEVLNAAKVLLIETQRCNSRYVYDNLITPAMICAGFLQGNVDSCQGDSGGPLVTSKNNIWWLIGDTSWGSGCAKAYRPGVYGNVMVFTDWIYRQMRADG
Sequence of UniProt P18825 (whole entry, looked up): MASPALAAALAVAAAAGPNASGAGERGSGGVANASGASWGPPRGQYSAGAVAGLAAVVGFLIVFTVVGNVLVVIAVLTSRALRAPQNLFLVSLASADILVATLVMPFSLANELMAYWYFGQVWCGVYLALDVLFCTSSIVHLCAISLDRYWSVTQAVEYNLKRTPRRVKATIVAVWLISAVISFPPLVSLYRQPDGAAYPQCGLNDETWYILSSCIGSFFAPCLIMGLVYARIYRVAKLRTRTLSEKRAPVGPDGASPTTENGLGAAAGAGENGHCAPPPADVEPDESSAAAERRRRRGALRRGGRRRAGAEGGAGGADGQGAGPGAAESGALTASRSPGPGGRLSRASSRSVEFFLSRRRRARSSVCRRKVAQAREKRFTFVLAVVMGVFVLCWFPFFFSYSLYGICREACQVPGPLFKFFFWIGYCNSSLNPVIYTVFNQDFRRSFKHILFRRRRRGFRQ
Sequence of UniProt Q99558 (whole entry, looked up): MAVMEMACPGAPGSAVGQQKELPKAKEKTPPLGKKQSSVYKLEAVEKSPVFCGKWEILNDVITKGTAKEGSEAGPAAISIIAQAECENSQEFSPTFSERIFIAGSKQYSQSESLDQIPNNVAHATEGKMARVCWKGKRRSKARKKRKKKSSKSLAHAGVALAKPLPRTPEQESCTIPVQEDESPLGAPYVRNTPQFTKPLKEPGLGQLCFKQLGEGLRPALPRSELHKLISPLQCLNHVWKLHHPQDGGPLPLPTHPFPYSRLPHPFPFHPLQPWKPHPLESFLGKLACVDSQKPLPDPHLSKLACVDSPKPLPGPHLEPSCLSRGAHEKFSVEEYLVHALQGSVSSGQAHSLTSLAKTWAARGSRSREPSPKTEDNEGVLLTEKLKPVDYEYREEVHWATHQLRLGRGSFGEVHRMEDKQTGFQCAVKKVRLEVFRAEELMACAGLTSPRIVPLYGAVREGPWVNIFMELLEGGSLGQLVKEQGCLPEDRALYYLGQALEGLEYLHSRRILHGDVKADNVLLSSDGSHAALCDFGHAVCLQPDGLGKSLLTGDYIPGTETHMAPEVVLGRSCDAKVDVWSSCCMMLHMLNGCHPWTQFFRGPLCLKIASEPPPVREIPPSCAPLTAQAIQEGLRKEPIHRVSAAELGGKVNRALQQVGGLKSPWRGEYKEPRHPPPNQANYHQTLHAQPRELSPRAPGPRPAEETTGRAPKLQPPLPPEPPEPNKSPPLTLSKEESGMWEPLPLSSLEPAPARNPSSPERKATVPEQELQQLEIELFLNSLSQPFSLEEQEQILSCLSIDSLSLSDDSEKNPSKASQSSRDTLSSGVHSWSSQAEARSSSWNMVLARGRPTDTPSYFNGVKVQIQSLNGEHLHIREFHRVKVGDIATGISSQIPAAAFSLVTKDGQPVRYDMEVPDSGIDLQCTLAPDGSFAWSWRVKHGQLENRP
Sequence of UniProt O75385 (whole entry, looked up): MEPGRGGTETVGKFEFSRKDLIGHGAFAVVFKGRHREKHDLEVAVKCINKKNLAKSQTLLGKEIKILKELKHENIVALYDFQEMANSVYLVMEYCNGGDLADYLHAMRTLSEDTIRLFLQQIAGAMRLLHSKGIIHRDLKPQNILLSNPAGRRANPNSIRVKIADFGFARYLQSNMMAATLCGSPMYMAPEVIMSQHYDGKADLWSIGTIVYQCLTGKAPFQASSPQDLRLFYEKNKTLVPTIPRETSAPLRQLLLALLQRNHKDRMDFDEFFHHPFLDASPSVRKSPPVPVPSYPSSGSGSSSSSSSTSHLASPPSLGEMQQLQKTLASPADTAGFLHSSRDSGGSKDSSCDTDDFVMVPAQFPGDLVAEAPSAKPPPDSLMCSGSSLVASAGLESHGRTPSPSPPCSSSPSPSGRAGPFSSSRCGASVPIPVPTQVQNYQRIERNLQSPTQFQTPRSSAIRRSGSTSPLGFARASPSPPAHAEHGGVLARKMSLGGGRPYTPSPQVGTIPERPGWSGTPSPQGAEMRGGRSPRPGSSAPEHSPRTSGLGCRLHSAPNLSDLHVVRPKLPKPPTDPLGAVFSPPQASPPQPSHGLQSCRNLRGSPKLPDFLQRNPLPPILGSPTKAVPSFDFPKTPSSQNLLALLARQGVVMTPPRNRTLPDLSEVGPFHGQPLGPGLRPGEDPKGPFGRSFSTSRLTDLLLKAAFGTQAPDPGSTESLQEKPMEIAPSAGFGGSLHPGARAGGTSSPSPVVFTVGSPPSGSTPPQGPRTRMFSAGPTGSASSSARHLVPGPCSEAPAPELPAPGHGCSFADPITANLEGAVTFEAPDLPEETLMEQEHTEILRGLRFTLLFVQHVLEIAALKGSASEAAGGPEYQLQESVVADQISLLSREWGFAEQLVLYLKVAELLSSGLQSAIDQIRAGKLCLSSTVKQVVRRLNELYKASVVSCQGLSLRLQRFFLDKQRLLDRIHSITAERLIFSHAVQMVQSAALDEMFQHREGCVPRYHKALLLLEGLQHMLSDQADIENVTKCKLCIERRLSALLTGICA
Sequence of UniProt P07711 (whole entry, looked up): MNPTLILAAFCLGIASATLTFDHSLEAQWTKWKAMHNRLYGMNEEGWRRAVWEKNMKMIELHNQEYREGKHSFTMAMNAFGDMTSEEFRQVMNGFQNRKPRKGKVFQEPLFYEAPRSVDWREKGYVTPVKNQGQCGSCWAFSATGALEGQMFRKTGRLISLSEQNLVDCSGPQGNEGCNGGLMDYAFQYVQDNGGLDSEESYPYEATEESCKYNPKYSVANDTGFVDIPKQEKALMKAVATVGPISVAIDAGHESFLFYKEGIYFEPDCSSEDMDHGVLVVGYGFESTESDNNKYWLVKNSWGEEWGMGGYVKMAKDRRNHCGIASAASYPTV

Compound	target	observed	mode	technique	concentration	endpoint	result
Cc1nn(C)cc1-c1nc2c(N3CCN(Cc4ccc(Cl)cc4)CC3)c(Cl)cnc2[nH]1	EGFR (Homo sapiens, UniProt P00533, L858R/T790M)	binding	–	competition with immobilised ligand	1 µM	remaining binding	91%
Cc1sc(CNCCCNc2cc(=O)c3ccccc3[nH]2)c(I)c1C	PFF0160c (Plasmodium falciparum, UniProt Q08210, E182D)	enzyme activity	inhibitor	absorbance	–	pIC50	< 5.00
COc1ncccc1-c1cnn2ccc(N3CCN(C(=O)OC(C)C)CC3)nc12	WNK3 (Homo sapiens, UniProt Q9BYP7)	binding	–	competition with immobilised ligand	1 µM	remaining binding	53%
Cn1nc(C(=O)N2CCC(c3[nH]ncc3Cc3ccccc3)CC2)c2ccccc2c1=O	PFF0160c (Plasmodium falciparum, UniProt Q08210)	enzyme activity	inhibitor	absorbance	–	pIC50	6.53
N=C(N)NCCC[C@H](NC(=O)[C@@H](N)Cc1c[nH]c2ccccc12)C(=O)N[C@@H](CCC(=O)O)C(=O)N[C@@H](CCCNC(=N)N)C(=O)c1nc2ccccc2s1	TMPRSS2	enzyme activity	inhibitor	–	1 nM	activity vs control	100%
CN1CCC[C@H]1c1cccnc1	ADRA2C (Homo sapiens, UniProt P18825)	ligand displacement	–	–	50 µM	inhibition	4.08%
CC(=O)N[C@@H](CCCNC(=N)N)C(=O)N[C@@H](CCC(N)=O)C(=O)N[C@@H](Cc1ccccc1)C(=O)N[C@H](CCCNC(=N)N)C(=O)c1nccs1	TMPRSS2	enzyme activity	inhibitor	–	1 nM	activity vs control	41%
[2H]c1c([2H])c([C@]2([2H])CCCN2C(=O)C(C)(C)Oc2ccc3cn[nH]c3c2)c([2H])c([2H])c1C([2H])([2H])[2H]	MAP3K14 (Homo sapiens, UniProt Q99558)	binding	–	competition with immobilised ligand	1 µM	remaining binding	95%
C#Cc1n[nH]c2c(-c3cn([C@@H](C)c4ccccn4)c(=O)[nH]c3=O)cc(F)cc12	PRKCA (Homo sapiens, UniProt P17252)	enzyme activity	inhibitor	–	0.1 µM	inhibition	4.2%
Nc1ncc(-c2nc(N3CCOCC3)nc(N3CCOCC3)n2)c(C(F)F)n1	ULK1 (Homo sapiens, UniProt O75385)	binding	–	competition with immobilised ligand	10 µM	remaining binding	57%
C[C@@H](NC(=O)[C@H](CCC(N)=O)NC(=O)[C@@H](N)CCCNC(=N)N)C(=O)N[C@H](CCCNC(=N)N)C(=O)c1nc2ccccc2s1	TMPRSS2	enzyme activity	inhibitor	–	1 nM	activity vs control	100%
NCCc1ccccc1	Procathepsin L (CTSL, Homo sapiens, UniProt P07711)	enzyme activity	inhibitor	–	100 µM	remaining activity	93.7%
C[C@@H](O)[C@H](NC(=O)[C@H](CCc1ccccc1)NC(=O)CCc1ccccc1)C(=O)N[C@@H](CCCNC(=N)N)C(=O)c1nc2ccccc2s1	TMPRSS2	enzyme activity	inhibitor	–	1 nM	activity vs control	81%
CCN(CC)CCCC[C@H](NC(=O)[C@H](CC(C)C)NC(=O)[C@H](C)NC(=O)[C@H](Cc1ccccc1)NC(=O)c1ccc(C(C)(C)C)cc1)C(=O)N[C@@H](CO)C(=O)OC	Bromodomain and WD repeat-containing protein 1, BD2 (BRWD1, Homo sapiens, UniProt Q9NSI6)	thermal stability	–	DSF	25 µM	ΔTm	0.95 °C

For quick reference, copied from above:
Compound	target	observed	mode	technique	concentration	endpoint	result
Cc1sc(CNCCCNc2cc(=O)c3ccccc3[nH]2)c(I)c1C	PFF0160c (Plasmodium falciparum, UniProt Q08210, E182D)	enzyme activity	inhibitor	absorbance	–	pIC50	< 5.00
COc1ncccc1-c1cnn2ccc(N3CCN(C(=O)OC(C)C)CC3)nc12	WNK3 (Homo sapiens, UniProt Q9BYP7)	binding	–	competition with immobilised ligand	1 µM	remaining binding	53%
